Experimental data of several laboratories.
Compare with care: the assays were run in different laboratories.
B1: INF2 941-1249 (Homo sapiens, UniProt Q27J81-1); FITC label; chain KQQLAEEEARRPRGEDGKPVRKGPGKQEEVCVIDALLADIRKGFQLRKTARGRGDTDGGSKAASMDPPRATEPVATSNPAGDPVGSTRCPASEPGLDATTASESRGWDLVDAVTPGPQPTLEQLEEGGPRPLERRSSWYVDASDVLTTEDPQCPQPLEGAWPVTLGDAQALKPLKFSSNQPPAAGSSRQDAKDPTSLLGVLQAEADSTSEGLEDAVHSRGARPPAAGPGGDEDEDEEDTAPESALDTSLDKSFSEDAVTDSSGSGTLPRARGRASKGTGKRRKKRPSRSQEEVPPDSDDNKTKKLCVIQ
B2: pmoA (Methylococcus capsulatus, UniProt Q607G3); sequence looked up; chain MSAAQSAVRSHAEAVQVSRTIDWMALFVVFFVIVGSYHIHAMLTMGDWDFWSDWKDRRLWVTVTPIVLVTFPAAVQSYLWERYRLPWGATVCVLGLLLGEWINRYFNFWGWTYFPINFVFPASLVPGAIILDTVLMLSGSYLFTAIVGAMGWGLIFYPGNWPIIAPLHVPVEYNGMLMSIADIQGYNYVRTGTPEYIRMVEKGTLRTFGKDVAPVSAFFSAFMSILIYFMWHFIGRWFSNERFLQST
B3: ND4L 1-89 (Yarrowia lipolytica, UniProt Q9B6D4); sequence looked up; chain MFIGTIILVLSFLGFVFNRRNIILAFICLETMLLGINLILLRNSVLFDDISGSLFAIVIIILAGVESAIGLSLLVSYYRLRGVINSYGI
B4: ptsO 1-85 (Escherichia coli, UniProt P0A9N0); sequence looked up; chain MTVKQTVEITNKLGMHARPAMKLFELMQGFDAEVLLRNDEGTEAEANSVIALLMLDSAKGRQIEVEATGPQEEEALAAVIALFNS
B5: RAD17 1-401 (Saccharomyces cerevisiae, UniProt P48581); chain MRINSELANKFSASTVHLEHITTALSCLTPFGSKDDVLIFIDADGLSFVRENNHVIKIQLLLSRELFMSYSYRNETEDHMKLCVKINHILDSVSVMNRNSDDIVECTLSYDGHGSPFVLIFEDSFISERVEYSTYLIKDFDTNGLELDRERISFEAIIKGEALHSALKDLKEIGCKECYVYAKTEANDENVFALISKSQLGFSKIKLPSNRSILEKLQVFDGDSTTVIDGFAVIGFFDFTSFDKIRKSTKIASKVLFRMDVHGVLSVNILSQTDDVIITDTTRPSNNRPGSIRQLQLPKDYPGIVIEVCMLEKESIDEAAQTEIELLMETNELGNRNSFKKSTIRKRYGTDKGNETSNDNLLQLNGKKIKLPSEEENNKNRESEDEENHCKYPTKDIPIFF
B6: ELM1 S519A (Saccharomyces cerevisiae, UniProt P32801); sequence looked up; chain MSPRQLIPTLIPEWAPLSQQSCIREDELDSPPITPTSQTSSFGSSFSQQKPTYSTIIGENIHTILDEIRPYVKKITVSDQDKKTINQYTLGVSAGSGQFGYVRKAYSSTLGKVVAVKIIPKKPWNAQQYSVNQVMRQIQLWKSKGKITTNMSGNEAMRLMNIEKCRWEIFAASRLRNNVHIVRLIECLDSPFSESIWIVTNWCSLGELQWKRDDDEDILPQWKKIVISNCSVSTFAKKILEDMTKGLEYLHSQGCIHRDIKPSNILLDEEEKVAKLSDFGSCIFTPQSLPFSDANFEDCFQRELNKIVGTPAFIAPELCHLGNSKRDFVTDGFKLDIWSLGVTLYCLLYNELPFFGENEFETYHKIIEVSLSSKINGNTLNDLVIKRLLEKDVTLRISIQDLVKVLSRDQPIDSRNHSQISSSSVNPVRNEGPVRRFFGRLLTKKGKKKTSGKGKDKVLVSATSKVTPSIHIDEEPDKECFSTTVLRSSPDSSDYCSSLGEEAIQVTDFLDTFCRSNEALPNLTVNNDKQNSDMKTDRSESSSHSSLKIPTPIKAMIRLKSSPKENGNRTHINCSQDKPSSPLMDRTVGKRTVNNSGARKLAHSSNILNFKAYINSEDSDIRETVEDVKTYLNFADNGQI
B7: NOTCH3 EGF5-12 197-505 (Homo sapiens, UniProt Q9UM47); sequence looked up; chain PAVPCAPSPCRNGGTCRQSGDLTYDCACLPGFEGQNCEVNVDDCPGHRCLNGGTCVDGVNTYNCQCPPEWTGQFCTEDVDECQLQPNACHNGGTCFNTLGGHSCVCVNGWTGESCSQNIDDCATAVCFHGATCHDRVASFYCACPMGKTGLLCHLDDACVSNPCHEDAICDTNPVNGRAICTCPPGFTGGACDQDVDECSIGANPCEHLGRCVNTQGSFLCQCGRGYTGPRCETDVNECLSGPCRNQATCLDRIGQFTCICMAGFTGTYCEVDIDECQSSPCVNGGVCKDRVNGFSCTCPSGFSGSTCQ
B8: rde-4 (Caenorhabditis elegans, UniProt G5EBF5); chain MDLTKLTFESVFGGSDVPMKPSRSEDNKTPRNRTDLEMFLKKTPLMVLEEAAKAVYQKTPTWGTVELPEGFEMTLILNEITVKGQATSKKAARQKAAVEYLRKVVEKGKHEIFFIPGTTKEEALSNIDQISDKAEELKRSTSDAVQDNDNDDSIPTSAEFPPGISPTENWVGKLQEKSQKSKLQAPIYEDSKNERTERFLVICTMCNQKTRGIRSKKKDAKNLAAWLMWKALEDGIESLESYDMVDVIENLEEAEHLLEIQDQASKIKDKHSALIDILSDKKRFSDYSMDFNVLSVSTMGIHQVLLEISFRRLVSPDPDDLEMGAEHTQTEEIMKATAEKEKLRKKNMPDSGPLVFAGHGSSAEEAKQCACKSAIIHFNTYDFTD
B9: JARID2 119-232 (Homo sapiens, UniProt Q92833); sequence looked up; chain QSQPNSPSTTPVKIVEPLLPPPATQISDLSKRKPKTEDFLTFLCLRGSPALPNSMVYFGSSQDEEEVEEEDDETEDVKTATNNASSSCQSTPRKGKTHKHVHNGHVFNGSSRST
B10: CDC5 (Saccharomyces cerevisiae, UniProt P32562); sequence looked up; chain MSLGPLKAINDKQLNTRSKLVHTPIKGNTADLVGKENHFKQTKRLDPNNDHHHQPAQKKKREKLSALCKTPPSLIKTRGKDYHRGHFLGEGGFARCFQIKDDSGEIFAAKTVAKASIKSEKTRKKLLSEIQIHKSMSHPNIVQFIDCFEDDSNVYILLEICPNGSLMELLKRRKVLTEPEVRFFTTQICGAIKYMHSRRVIHRDLKLGNIFFDSNYNLKIGDFGLAAVLANESERKYTICGTPNYIAPEVLMGKHSGHSFEVDIWSLGVMLYALLIGKPPFQARDVNTIYERIKCRDFSFPRDKPISDEGKILIRDILSLDPIERPSLTEIMDYVWFRGTFPPSIPSTVMSEAPNFEDIPEEQSLVNFKDCMEKSLLLESMSSDKIQRQKRDYISSIKSSIDKLEEYHQNRPFLPHSLSPGGTKQKYKEVVDIEAQRRLNDLAREARIRRAQQAVLRKELIATSTNVIKSEISLRILASECHLTLNGIVEAEAQYKMGGLPKSRLPKIKHPMIVTKWVDYSNKHGFSYQLSTEDIGVLFNNGTTVLRLADAEEFWYISYDDREGWVASHYLLSEKPRELSRHLEVVDFFAKYMKANLSRVSTFGREEYHKDDVFLRRYTRYKPFVMFELSDGTFQFNFKDHHKMAISDGGKLVTYISPSHESTTYPLVEVLKYGEIPGYPESNFREKLTLIKEGLKQKSTIVTVD
B11: PZF1 1-429 (Saccharomyces cerevisiae, UniProt P39933); chain MGGEVLNNEGMPLAELKQETIPISRSESSESLNSLTSTRSSSSNRPKTYFCDYDGCDKAFTRPSILTEHQLSVHQGLRAFQCDKCAKSFVKKSHLERHLYTHSDTKPFQCSYCGKGVTTRQQLKRHEVTHTKSFICPEEGCNLRFYKHPQLRAHILSVHLHKLTCPHCNKSFQRPYRLRNHISKHHDPEVENPYQCTFAGCCKEFRIWSQLQSHIKNDHPKLKCPICSKPCVGENGLQMHMIIHDDSLVTKNWKCHICPDMSFSRKHDLLTHYGSIHTEEDIPLELKYKISDIQQLVQDHGVQLGNSKHSNEQDEEKISNRLRKRRKLTENNNVEFLQNEVDLEKRLESGENGLNLLLNTVGRKYRCFYNNCSRTFKTKEKYEKHIDKHKVHELKLKILQEKEENKTLVDQNHKEPFIIQKETQSAGDK
B12: human RAB8B; sequence looked up; chain MAKTYDYLFKLLLIGDSGVGKTCLLFRFSEDAFNTTFISTIGIDFKIRTIELDGKKIKLQIWDTAGQERFRTITTAYYRGAMGIMLVYDITNEKSFDNIKNWIRNIEEHASSDVERMILGNKCDMNDKRQVSKERGEKLAIDYGIKFLETSAKSSANVEEAFFTLARDIMTKLNRKMNDSNSAGAGGPVKITENRSKKTSFFRC
B13: PTPN6 1-109 (Homo sapiens, UniProt P29350-3); chain MLSRGWFHRDLSGLDAETLLKGRGVHGSFLARPSRKNQGDFSLSVRVGDQVTHIRIQNSGDFYDLYGGEKFATLTELVEYYTQQQGVLQDRDGTIIHLKYPLNCSDPTS
B14: aceF (Escherichia coli, UniProt P06959); sequence looked up; chain MAIEIKVPDIGADEVEITEILVKVGDKVEAEQSLITVEGDKASMEVPSPQAGIVKEIKVSVGDKTQTGALIMIFDSADGAADAAPAQAEEKKEAAPAAAPAAAAAKDVNVPDIGSDEVEVTEILVKVGDKVEAEQSLITVEGDKASMEVPAPFAGTVKEIKVNVGDKVSTGSLIMVFEVAGEAGAAAPAAKQEAAPAAAPAPAAGVKEVNVPDIGGDEVEVTEVMVKVGDKVAAEQSLITVEGDKASMEVPAPFAGVVKELKVNVGDKVKTGSLIMIFEVEGAAPAAAPAKQEAAAPAPAAKAEAPAAAPAAKAEGKSEFAENDAYVHATPLIRRLAREFGVNLAKVKGTGRKGRILREDVQAYVKEAIKRAEAAPAATGGGIPGMLPWPKVDFSKFGEIEEVELGRIQKISGANLSRNWVMIPHVTHFDKTDITELEAFRKQQNEEAAKRKLDVKITPVVFIMKAVAAALEQMPRFNSSLSEDGQRLTLKKYINIGVAVDTPNGLVVPVFKDVNKKGIIELSRELMTISKKARDGKLTAGEMQGGCFTISSIGGLGTTHFAPIVNAPEVAILGVSKSAMEPVWNGKEFVPRLMLPISLSFDHRVIDGADGARFITIINNTLSDIRRLVM
Sequence of UniProt O15085 (whole entry, looked up): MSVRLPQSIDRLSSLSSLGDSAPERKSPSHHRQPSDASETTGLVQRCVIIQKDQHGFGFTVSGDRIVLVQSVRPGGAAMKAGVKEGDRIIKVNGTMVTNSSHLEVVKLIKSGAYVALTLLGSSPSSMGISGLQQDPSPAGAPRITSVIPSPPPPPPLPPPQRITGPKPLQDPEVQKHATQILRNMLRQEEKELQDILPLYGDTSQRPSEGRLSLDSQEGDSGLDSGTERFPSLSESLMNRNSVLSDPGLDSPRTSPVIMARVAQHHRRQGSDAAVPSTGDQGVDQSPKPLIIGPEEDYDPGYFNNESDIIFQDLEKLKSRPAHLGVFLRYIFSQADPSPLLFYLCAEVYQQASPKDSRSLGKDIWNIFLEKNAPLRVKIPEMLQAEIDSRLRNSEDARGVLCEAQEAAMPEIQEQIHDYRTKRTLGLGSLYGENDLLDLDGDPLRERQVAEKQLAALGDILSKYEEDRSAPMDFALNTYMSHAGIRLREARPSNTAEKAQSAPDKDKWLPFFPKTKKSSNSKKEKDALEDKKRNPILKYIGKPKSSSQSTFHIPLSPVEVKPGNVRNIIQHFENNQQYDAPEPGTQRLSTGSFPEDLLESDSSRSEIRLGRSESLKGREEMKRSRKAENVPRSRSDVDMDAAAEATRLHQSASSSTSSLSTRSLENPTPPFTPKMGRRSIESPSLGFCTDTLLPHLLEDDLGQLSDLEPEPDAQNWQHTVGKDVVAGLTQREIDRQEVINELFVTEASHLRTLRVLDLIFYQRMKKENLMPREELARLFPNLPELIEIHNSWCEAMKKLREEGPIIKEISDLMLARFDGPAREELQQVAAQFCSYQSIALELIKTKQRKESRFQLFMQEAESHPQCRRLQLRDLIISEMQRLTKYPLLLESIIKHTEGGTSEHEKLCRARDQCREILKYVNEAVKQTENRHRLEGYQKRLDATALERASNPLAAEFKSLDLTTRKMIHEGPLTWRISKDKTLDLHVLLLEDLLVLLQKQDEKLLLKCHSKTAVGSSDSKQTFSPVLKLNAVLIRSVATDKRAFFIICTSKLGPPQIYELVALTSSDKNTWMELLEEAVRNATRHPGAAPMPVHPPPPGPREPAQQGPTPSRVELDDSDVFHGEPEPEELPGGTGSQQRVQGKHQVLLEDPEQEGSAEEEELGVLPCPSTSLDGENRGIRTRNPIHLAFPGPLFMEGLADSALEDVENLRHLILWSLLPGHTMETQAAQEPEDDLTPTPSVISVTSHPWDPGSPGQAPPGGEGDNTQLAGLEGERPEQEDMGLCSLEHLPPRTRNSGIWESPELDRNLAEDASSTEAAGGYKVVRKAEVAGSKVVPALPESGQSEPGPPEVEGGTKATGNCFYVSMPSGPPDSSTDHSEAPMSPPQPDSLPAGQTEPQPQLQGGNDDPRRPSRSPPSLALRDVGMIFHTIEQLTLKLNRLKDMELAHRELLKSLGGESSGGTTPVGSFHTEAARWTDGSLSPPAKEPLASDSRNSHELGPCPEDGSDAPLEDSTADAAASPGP
Sequence of UniProt P34111 (whole entry, looked up): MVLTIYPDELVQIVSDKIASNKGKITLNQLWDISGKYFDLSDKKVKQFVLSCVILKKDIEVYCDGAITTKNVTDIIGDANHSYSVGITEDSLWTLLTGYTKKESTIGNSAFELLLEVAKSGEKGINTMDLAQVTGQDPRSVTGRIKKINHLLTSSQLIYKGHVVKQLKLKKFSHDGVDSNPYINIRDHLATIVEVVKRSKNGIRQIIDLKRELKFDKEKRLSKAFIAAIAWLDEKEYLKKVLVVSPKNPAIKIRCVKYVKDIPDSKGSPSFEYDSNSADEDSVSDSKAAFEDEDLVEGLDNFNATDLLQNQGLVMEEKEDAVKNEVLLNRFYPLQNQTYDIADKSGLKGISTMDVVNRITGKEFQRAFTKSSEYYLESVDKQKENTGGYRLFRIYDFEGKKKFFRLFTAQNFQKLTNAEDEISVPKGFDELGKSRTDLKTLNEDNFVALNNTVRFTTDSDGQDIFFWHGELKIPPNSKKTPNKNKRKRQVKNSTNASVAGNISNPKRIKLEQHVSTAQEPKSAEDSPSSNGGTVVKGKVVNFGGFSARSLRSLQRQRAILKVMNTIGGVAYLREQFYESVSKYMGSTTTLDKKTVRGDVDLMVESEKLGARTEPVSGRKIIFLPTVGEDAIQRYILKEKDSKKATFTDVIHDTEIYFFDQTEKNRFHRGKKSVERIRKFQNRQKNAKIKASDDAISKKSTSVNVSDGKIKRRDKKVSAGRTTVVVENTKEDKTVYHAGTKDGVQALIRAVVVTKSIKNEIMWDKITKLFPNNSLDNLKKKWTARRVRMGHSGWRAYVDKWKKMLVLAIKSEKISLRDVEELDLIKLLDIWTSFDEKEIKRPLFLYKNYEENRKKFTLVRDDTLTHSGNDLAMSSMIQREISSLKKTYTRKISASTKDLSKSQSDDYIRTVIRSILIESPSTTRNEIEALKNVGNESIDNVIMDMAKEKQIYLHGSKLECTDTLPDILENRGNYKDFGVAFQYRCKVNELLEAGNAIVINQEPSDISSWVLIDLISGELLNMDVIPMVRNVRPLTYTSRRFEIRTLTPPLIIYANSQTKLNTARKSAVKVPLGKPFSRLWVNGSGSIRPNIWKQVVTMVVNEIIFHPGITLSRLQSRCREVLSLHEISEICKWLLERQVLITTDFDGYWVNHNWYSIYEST
Sequence of UniProt Q9B6C8 (whole entry, looked up): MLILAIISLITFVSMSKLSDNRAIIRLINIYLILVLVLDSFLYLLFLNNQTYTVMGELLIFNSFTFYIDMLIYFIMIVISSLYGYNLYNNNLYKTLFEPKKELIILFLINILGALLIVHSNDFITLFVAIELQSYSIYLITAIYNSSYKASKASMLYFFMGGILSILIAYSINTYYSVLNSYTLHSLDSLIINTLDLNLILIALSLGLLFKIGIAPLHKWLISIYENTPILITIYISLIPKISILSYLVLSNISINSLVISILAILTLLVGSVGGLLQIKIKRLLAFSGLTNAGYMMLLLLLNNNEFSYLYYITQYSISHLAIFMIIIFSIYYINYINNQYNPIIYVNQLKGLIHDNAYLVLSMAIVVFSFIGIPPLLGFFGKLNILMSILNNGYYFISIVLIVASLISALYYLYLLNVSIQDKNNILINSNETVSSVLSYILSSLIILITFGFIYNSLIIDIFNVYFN
Sequence of UniProt P46675 (whole entry, looked up): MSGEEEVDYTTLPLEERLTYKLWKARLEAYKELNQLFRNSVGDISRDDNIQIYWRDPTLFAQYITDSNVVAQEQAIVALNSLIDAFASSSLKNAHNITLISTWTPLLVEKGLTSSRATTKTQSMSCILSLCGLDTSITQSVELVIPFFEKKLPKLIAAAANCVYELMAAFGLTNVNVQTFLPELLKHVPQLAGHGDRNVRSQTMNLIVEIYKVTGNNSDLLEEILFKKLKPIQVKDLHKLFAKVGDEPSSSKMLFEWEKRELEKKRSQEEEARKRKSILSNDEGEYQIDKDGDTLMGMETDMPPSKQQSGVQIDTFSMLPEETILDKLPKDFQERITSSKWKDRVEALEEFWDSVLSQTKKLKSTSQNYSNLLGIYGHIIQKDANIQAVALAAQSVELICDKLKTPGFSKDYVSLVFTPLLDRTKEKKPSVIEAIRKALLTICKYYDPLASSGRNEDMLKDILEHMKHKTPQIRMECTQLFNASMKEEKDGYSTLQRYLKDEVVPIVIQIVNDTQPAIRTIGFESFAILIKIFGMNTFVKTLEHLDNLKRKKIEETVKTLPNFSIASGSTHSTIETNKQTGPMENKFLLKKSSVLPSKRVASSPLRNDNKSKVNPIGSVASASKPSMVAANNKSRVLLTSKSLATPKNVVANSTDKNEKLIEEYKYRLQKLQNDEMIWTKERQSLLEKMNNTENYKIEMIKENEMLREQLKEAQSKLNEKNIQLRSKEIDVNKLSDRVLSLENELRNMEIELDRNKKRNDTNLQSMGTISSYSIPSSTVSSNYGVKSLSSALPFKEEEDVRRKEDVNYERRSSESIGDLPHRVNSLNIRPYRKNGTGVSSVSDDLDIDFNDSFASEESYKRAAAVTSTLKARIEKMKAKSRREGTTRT
Sequence of UniProt O95931 (whole entry, unmodified, looked up): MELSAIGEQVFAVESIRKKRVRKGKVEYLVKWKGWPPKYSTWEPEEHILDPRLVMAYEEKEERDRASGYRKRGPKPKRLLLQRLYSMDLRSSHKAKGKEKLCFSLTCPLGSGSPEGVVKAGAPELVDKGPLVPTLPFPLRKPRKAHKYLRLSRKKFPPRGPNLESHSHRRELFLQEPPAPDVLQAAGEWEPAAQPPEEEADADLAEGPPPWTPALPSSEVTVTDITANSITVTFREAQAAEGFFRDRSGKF
Sequence of UniProt G1UBD1 (whole entry, looked up): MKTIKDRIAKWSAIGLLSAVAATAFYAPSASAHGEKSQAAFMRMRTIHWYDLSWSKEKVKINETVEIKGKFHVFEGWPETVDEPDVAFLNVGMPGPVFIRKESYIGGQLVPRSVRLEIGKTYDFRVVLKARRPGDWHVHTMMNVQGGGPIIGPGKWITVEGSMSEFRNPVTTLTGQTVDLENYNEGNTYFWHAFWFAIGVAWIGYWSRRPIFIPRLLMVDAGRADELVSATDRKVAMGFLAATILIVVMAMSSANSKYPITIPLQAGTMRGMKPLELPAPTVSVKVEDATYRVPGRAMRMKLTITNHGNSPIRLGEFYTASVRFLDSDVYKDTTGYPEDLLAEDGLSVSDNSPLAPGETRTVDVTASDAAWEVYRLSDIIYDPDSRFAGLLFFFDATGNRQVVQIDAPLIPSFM
Sequence of UniProt Q9Y657 (whole entry, looked up): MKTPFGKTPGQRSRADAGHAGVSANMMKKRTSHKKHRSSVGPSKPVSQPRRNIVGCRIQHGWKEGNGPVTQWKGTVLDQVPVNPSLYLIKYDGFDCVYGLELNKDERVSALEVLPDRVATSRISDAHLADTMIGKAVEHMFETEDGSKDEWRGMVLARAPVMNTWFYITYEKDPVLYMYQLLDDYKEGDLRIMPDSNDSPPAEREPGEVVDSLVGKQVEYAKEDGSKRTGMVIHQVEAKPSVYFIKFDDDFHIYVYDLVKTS

prohibitin-2, human
log2 fold change (CYB5R4 knockout human cells; PP6 interaction, 3xFLAG-PP6C IP-MS; concentration not given; reference: CYB5R4 KO over parental): -0.53

B1 (INF2 941-1249)
binding (INF2 1-420 20-24 to GSGSG (Homo sapiens, UniProt Q27J81); FP): binds

B2 (pmoA)
binding (pmoB 33-414 (Methylococcus capsulatus, UniProt G1UBD1); cryo-EM): binds

B3 (ND4L 1-89)
binding (ND2 1-469 (Yarrowia lipolytica, UniProt Q9B6C8); cryo-EM): binds

B4 (ptsO 1-85)
binding (ptsP 170-424 H356Q (Escherichia coli, UniProt P37177); SEC): binds

B5 (RAD17 1-401)
binding (MEC3 (Saccharomyces cerevisiae, UniProt Q02574); cryo-EM): binds

ARHGEF40 (Homo sapiens, UniProt Q8TER5)
binding (ARHGEF11 (Homo sapiens, UniProt O15085); co-IP): binds

B6 (ELM1 S519A)
binding (GIN4 (Saccharomyces cerevisiae, UniProt Q12263); pull-down): binds

VRKKRGRPMTKN (SPINDOC 228-239 (Homo sapiens, UniProt Q9BUA3))
binding (SPIN1 50-262 (Homo sapiens, UniProt Q9Y657); NMR titration; peptide): binds

B7 (NOTCH3 EGF5-12 197-505)
binding (DLL4 27-400 N257P/T271L/F280Y/S301R/Q305P (Homo sapiens, UniProt Q9NR61); SPR): binds

B8 (rde-4)
binding (dcr-1 (Caenorhabditis elegans, UniProt P34529); mass photometry): binds

B9 (JARID2 119-232)
binding (SUZ12/RBBP4 SUZ12 76-545 (Homo sapiens); pull-down; competition): binds

ARTKQTARKSTGGKAY (histone H3 residues 1-15; K9me3)
binding (ATRX 1-321 E252L (Homo sapiens, UniProt P46100); ITC; peptide; 25 °C): binds

ARTKQTARKSTGGKA (H3 peptide residues 1-x; K9me3, N-terminal fluorescein)
binding (CBX7 8-62 D50C/R52D (Homo sapiens, UniProt O95931); FP; peptide): binds

B10 (CDC5)
binding (STU2 (Saccharomyces cerevisiae, UniProt P46675); pull-down): binds

B11 (PZF1 1-429)
binding (TFC3 1-1160 (Saccharomyces cerevisiae, UniProt P34111); cryo-EM): binds

GTSSFKESALRKQSLYLKFDPLLRDSPGR (TACC3 545-573 (Homo sapiens, UniProt Q9Y6A5); sequence looked up)
binding (CLTC 358-574 (Homo sapiens, UniProt Q00610); NMR titration): binds

B12 (human RAB8B)
log2 fold change (CYB5R4 knockout human cells; PP6 interaction, 3xFLAG-PP6C IP-MS; concentration not given; reference: CYB5R4 KO over parental): -0.11

B13 (PTPN6 1-109)
binding (CD22, tyrosine phosphorylated (Homo sapiens, UniProt P20273); far-Western blot; anti-IgM-stimulated): binds

B14 (aceF)
binding (aceE (Escherichia coli, UniProt P0AFG8); negative-stain EM, thermal unfolding): binds

RISBZ1 (Oryza sativa, UniProt Q6ZLB0)
binding (bZIP60 (Oryza sativa, UniProt Q8LIB3); pull-down; in vitro): binds

DGVYTGLSTRNQETYETLKH (FCER1G 62-81; phosphotyrosine)
binding (SYK (Homo sapiens, UniProt P43405); FIDA; peptide): binds

Excerpt of the above:
RISBZ1 (Oryza sativa, UniProt Q6ZLB0)
binding (bZIP60 (Oryza sativa, UniProt Q8LIB3); pull-down; in vitro): binds

DGVYTGLSTRNQETYETLKH (FCER1G 62-81; phosphotyrosine)
binding (SYK (Homo sapiens, UniProt P43405); FIDA; peptide): binds
